Assay results pooled from the literature.
Each numbered part is a random draw from the data of one study; scales do not carry over between parts. Positions count from the first letter of the parent shown.
Chain of UniProt Q9Y4K4 (whole entry, looked up): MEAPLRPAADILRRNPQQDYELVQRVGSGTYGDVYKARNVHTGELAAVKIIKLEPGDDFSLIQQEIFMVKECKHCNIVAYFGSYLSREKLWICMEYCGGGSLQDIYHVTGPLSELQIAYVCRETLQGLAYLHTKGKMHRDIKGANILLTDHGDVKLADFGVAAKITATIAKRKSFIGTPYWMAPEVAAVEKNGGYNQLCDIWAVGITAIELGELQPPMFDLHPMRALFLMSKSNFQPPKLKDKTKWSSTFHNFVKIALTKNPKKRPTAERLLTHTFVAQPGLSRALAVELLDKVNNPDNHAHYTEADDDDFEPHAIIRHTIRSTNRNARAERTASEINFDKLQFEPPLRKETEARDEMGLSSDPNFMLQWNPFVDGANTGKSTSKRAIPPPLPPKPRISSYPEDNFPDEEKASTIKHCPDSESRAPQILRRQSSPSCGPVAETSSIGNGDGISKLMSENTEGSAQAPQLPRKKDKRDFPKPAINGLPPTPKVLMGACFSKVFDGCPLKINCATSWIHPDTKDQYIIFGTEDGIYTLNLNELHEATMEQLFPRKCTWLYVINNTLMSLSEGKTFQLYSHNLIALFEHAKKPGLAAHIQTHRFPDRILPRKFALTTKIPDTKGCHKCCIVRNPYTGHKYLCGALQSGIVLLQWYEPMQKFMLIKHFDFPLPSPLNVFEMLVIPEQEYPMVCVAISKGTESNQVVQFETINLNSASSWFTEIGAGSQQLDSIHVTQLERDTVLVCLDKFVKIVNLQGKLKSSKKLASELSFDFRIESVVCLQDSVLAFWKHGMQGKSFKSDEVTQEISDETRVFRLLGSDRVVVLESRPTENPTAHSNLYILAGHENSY

Series 1
Target: RING finger protein unkempt homolog, zinc fingers 1-6, GST-SBP tag (UNK, Homo sapiens, UniProt Q9C0B0, residues 30-357)
Technique: RNA Bind-n-Seq
Form: RNA
Sample: in vitro
Concentration: not given
Notes: RNA with constant flanks, human-mouse chimeric sites, ends assumed
Baseline: input RNA pool
Direction: higher = stronger binding
Target sequence (chain): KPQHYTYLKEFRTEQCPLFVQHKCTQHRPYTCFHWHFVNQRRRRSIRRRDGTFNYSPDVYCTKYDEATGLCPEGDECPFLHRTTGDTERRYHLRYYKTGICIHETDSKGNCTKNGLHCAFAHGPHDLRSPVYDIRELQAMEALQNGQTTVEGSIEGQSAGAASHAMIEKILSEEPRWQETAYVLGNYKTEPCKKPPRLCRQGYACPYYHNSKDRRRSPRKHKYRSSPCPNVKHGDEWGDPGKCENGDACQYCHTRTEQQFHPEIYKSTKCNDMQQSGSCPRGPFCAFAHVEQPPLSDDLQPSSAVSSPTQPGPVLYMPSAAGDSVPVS
The bound/input enrichment of `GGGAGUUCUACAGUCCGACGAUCUGACAAGGGCACUGCAGGGCCAUGCCUUUCCUUGACAUACAGAAAAAGCUGGGCAUCAGCCUGGACCGGCACUUUAUGUUCCUAAGCGCAGAACAGCCCUAUAAGAAGGCUGGUCGAUGCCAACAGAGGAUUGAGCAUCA` is reported as 0.0905 ratio.
`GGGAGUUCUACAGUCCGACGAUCAAAGAGAAACUAAAGCAACUAAUAGAGAAGAGGAUUGGCAAAGAGAAUUUCAUAGAGAAACUAGGAUUUAUUAGCAAACAUGAGUUAGUAUUCCAGAGCAUCUCAGAACCCCAGCCAAACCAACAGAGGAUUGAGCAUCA` gave a bound/input enrichment of 2.78 ratio.
For `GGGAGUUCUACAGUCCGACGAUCUAAGUUAUUUUGUACAGCUUUGUAAAUUGUAUAGCUUUUUAUAUUGCCAUGUUUAUUUUGUUUGGGUAAUUUGGUUCAUUAAGUACAUAGCUAAGGUAAUGAACAUCGUAAUUAUAGAUUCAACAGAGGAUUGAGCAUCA`, the bound/input enrichment was 6.52 ratio.
The bound/input enrichment of `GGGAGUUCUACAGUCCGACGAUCAUGGAGAAGGAUUCUCUGCCCCGCUUUGUGCGCUCUGAAUUUUAUAAGGAGCUAAUCAAGUAGUCAUCUGGUCAGGCUUCCAAAAGUUGCCCUGUGAUAUUUCCUCCAUAAUAACCCGCACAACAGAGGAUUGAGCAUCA` is reported as 0.251 ratio.
The bound/input enrichment of `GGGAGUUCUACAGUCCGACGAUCCUGGGUAUUAUUUCUCGUGCUGUUAGACACCUGUUCAAGAGUAUUGAUGAGAAAAAGACCUCAGCGAUUAAAAACGGGCUGCCCCCUCCUGAAUUCAAAGUGAAUGCCCAGUUCCUAGAGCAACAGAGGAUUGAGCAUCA` is reported as 0.0704 ratio.
`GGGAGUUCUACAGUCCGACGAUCUAAGUCCUGUGCCAGCACUUCGCUCAUAAAGUUUUAAAUUCUGGACCAAUAGUGUUUAUCUUUAGAAUAUUGUAUCCAAUACUUUGCCUAGUAUGUAACUCACUCUUACUGAUAAUAAAACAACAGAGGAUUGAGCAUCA` has a bound/input enrichment of 10.1 ratio.
With `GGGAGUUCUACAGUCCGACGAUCUGUGCAUUAUGAUGCUUAGAUGGUUUUUGCAAAAGCAGAAAUCGCUGCAAGGUAAUCACAAUAGAUACAAGCGGUAUUUUAAACCUUUGAAAUAAAUGGAUGUAACUGUACCUUGGUACACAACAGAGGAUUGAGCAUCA` the bound/input enrichment was 0.299 ratio.
`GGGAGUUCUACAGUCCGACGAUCUCCCUGUUGCUGAAUAAAUGGCUUGUAAAGAAGUUUUUCCAAGCUGUAACCCAUGCUGUUAUUAUAGUUGCUGCAAAAUGUCUCUUAUGAUAUUGAUUUUAUUUGUUAACUGAAGGUCUCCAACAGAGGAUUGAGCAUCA` gave a bound/input enrichment of 0.391 ratio.

Series 2
Target: CCND1, cyclin fold, Cln2 fusion (human)
Technique: yeast growth competition, sequencing
Sample: yeast
Notes: weak parent motif
Baseline: not given
Direction: higher = stronger binding
Starting sequence: RB1 docking peptide (human); PKPLKKLRFDIEG; partner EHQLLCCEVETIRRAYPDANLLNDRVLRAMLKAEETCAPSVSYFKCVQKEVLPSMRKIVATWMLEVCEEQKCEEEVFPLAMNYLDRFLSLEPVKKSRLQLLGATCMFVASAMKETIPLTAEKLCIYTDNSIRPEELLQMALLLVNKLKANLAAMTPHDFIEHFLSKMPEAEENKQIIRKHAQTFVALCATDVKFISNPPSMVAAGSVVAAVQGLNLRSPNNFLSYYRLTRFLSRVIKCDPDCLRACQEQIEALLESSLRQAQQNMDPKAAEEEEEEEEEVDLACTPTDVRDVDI
`PKPLAKLRFDIEG [K5A]`: “normalised enrichment score” -0.173.
`PKPLKKLMFDIEG [R8M]`: “normalised enrichment score” 0.369.
For `PKPLKKLRFDIRG [E12R]`, “normalised enrichment score” read -0.292.
For `PKPLKKLRFDITG [E12T]`, “normalised enrichment score” read 0.11.
`PKPLKKLRFDIPG [E12P]`: “normalised enrichment score” -0.0141.
For `PKPLLKLRFDIEG [K5L]`, “normalised enrichment score” read 0.239.
`PKPLKKLRFDIGG [E12G]`: “normalised enrichment score” 0.601.
`PWPLKKLRFDIEG [K2W]`: “normalised enrichment score” -0.357.

Series 3
Target: Sal-like protein 4, full length isoform A (SALL4, Homo sapiens, UniProt Q9UJQ4, residues 1-1053)
Chain of UniProt Q9UJQ4 (whole entry, looked up): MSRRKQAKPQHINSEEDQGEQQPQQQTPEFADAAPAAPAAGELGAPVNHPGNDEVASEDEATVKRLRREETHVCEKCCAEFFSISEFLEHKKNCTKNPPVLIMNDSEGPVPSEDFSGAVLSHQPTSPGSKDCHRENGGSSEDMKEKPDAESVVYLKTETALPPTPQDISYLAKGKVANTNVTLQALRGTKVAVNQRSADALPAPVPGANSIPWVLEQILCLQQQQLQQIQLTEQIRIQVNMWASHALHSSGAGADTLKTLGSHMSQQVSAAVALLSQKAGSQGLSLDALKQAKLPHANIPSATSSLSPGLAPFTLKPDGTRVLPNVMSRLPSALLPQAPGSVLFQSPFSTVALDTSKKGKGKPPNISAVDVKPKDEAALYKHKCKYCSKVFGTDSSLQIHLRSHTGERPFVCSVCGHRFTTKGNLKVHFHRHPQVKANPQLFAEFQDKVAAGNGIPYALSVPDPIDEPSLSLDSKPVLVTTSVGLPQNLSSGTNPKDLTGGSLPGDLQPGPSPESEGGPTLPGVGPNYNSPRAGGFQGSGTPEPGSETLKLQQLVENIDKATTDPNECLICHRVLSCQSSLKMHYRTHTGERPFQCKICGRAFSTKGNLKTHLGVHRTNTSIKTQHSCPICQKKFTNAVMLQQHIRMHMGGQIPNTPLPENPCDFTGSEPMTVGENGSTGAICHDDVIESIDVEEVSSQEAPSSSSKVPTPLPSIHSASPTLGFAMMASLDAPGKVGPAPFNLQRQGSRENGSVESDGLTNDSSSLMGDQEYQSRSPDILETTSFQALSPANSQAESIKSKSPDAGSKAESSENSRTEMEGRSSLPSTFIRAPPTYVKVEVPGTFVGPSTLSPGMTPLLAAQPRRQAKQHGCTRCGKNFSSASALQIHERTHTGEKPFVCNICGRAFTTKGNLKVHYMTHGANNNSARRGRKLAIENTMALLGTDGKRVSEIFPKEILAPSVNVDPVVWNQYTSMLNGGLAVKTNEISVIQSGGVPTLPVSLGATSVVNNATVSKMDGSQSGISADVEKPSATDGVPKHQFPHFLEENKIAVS
Technique: universal PBM
Form: double-stranded DNA, one strand shown
Sample: in vitro
Concentration: 600 nM
Notes: 8-mer, flanks averaged, mean of replicates
Direction: higher = stronger binding
For `CGCTTATA`, the E-score was 0.142.
For `AGTGTCCA`, the E-score was -0.00107.
With `ACGCCTTG` the E-score was -0.167.
With `CCACCGAA` the E-score was -0.131.
`ACTATGTA` gave an E-score of 0.19.
The E-score of `AACTCGAC` is reported as -0.122.
With `AAAGCCCT` the E-score was -0.0983.
`ATCACCAC` gave an E-score of 0.0897.

Further values, each from its own experiment
`Cc1nc2cc3nc(-c4cccs4)cnc3cc2n1C` gave a remaining activity of 94.8% (Mitogen-activated protein kinase kinase kinase kinase 5 (MAP4K5, Homo sapiens, UniProt Q9Y4K4); enzyme activity, inhibitor; 0.5 µM; baseline: control).

Repeated from above (series 2):
`PKPLKKLMFDIEG [R8M]`: “normalised enrichment score” 0.369.
For `PKPLKKLRFDIRG [E12R]`, “normalised enrichment score” read -0.292.
For `PKPLKKLRFDITG [E12T]`, “normalised enrichment score” read 0.11.
